Experimental data from different studies.
Parts stem from different laboratories: compare values within a part only. Positions count from the first letter of the parent shown.

Study 1
Target: Hepatocyte nuclear factor 3-alpha (Foxa1, Mus musculus, UniProt P35582, residues 1-468, full length assumed)
Technique: EMSA with sequencing
Form: double-stranded DNA, one strand shown
Sample: in vitro
Concentration: 10 and 20 nM
Notes: whole designed probe, mean of two concentrations, ends assumed
Baseline: negative control set to 0
Direction: higher = stronger binding
Residues (chain): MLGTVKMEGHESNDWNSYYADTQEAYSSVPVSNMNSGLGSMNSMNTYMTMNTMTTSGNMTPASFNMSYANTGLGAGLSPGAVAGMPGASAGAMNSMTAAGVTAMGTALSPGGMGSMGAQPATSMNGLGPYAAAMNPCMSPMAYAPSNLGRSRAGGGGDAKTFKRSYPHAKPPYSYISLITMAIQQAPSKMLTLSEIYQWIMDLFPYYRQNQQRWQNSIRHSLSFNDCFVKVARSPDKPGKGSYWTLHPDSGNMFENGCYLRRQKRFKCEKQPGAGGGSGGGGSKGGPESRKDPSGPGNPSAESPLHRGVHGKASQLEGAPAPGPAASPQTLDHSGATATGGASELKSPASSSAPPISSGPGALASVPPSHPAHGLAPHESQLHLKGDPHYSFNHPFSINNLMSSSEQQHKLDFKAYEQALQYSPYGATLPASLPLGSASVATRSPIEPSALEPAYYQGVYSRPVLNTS
| Oligonucleotide | normalised bound fraction |
| --- | --- |
| GTGAGCGGTGCCCATTGATGGGGAACTTTGCTTTTCTCTCTCAAAGTATAATATGCTTGTTGAAACTTCAAACTTAAATGGGAGAGAAAAATTCTCTGAAAATATTTTGCCATTTTTCCTTGTTTACACAAAGAGAGGTGGATGTTTACATGTTTGATTCACATACACATGTAAAGCTGGTACTTTCGGTTAAAACTTTCTAGAACATAGCAATCAGGGTTTCACTGGGATCGTGGGGAC | 0.399 ratio |
| GTGAGCGGTGCCCATTGATGGGGAACGGACTTTGATAATTTTCTTTTAATTCCACACATCTATGATATTTTATCTTCTTAGGTAATAAAGGTATTAGAACTCTTTTCTTCTGCATCTGTGTTTACATTGAGATGCCATAACTTTTGTAGTATATAATGAATTCAGAGAAAAGAATAAAATCTAAATATTAAATAAAATTATATATTTATACATGAAAAATTTCACTGGGATCGTGGGGAC | 0.339 ratio |
| GTGAGCGGTGCCCATTGATGGGGAACGGACAGGATTAGAGAAGCAACGTAGAAGTTCAAATATTTCACCTACCTGTCAACAGATTAGTGTGTGTTAAGTCAATATCTTTGCCAGATTAGGCAATCTAAAAGATCGTGTTGTGCAATATATGGGACATACTTATACTACAGTTTTATCTGTTGTTTATTTGAGGTTCAAATTACACTGGCAGCCCTTCATTTTCACTGGGATCGTGGGGAC | 0.324 ratio |
| GTGAGCGGTGCCCATTGATGGGGAACGGAATTCCAACCTGAGATAAGGGCAATAAGTTTACTAGCTATGAGATATTACAGATAACATTTCGTACTGATGCCTCTTTTTGGTATTATGTATATTTATTTTGGTCAGAAATATTGGATGAGTCACTAAATTGCATCATCTCAAGAAATGTTCCTGCATTTACATGTTATCCACTTAGAATTTAAAGTGGACTTTCACTGGGATCGTGGGGAC | 0.164 ratio |

Study 2
Target: Fragile X messenger ribonucleoprotein 1, C-terminal low-complexity region (Fmr1, Mus musculus, UniProt P35922)
Technique: RNA Bind-n-Seq
Form: RNA
Sample: in vitro
Concentration: 200 nM
Notes: whole 134-nt RNA, ends assumed
Together with: 150 mM KCl
Baseline: input library
Direction: higher = stronger binding
Constant ends, left off below: GGGAGUUCUACAGUCCGACGAUC … UGGAAUUCUCGGGUGUCAAGG
| Oligonucleotide | log2 enrichment |
| --- | --- |
| UUCCUUCCACGACCCCUGAAGAGCAGCGGUGGGUCUGAGCAUCCUAUCUCCAGGAAGCAGGCCAGCAGGCAAGCCAGCUGCCACCUCGUC | -0.0572 |
| UAACUUUAGAGGAGGAUUUGAUGGAUAUGGCAGUGGACGUGGAUUUGGGGAUGGCUAUAAUGGGUAUGGAGGAGGACCUGGAGGUGGCAA | 0.254 |
| CACGGACAACACGCACCCACACAGACACAGAGGGAAGGGGUUGGGAUGGGGACAGGGUGCACAGCAGGGCGGGGUAGGACCCCAGCCCCU | 1.6 |
| GCAGGAAGUAAAAACAAAUGGAAAUGCUGCGGAUAGUGGCAGGGGUGGGGGUUGCUAAGGAAAGGGUGGGAUGGGAGUGGGUAAAGAGUU | 0.28 |
| UCCUGUGCUACACAUCGUAUGUACCGAAUCGGGAAAAAGGGUUUUUUUGGGAAAAAGGGAAAGUAUUAUGUUACGCCGUUCGGAUCUGCA | -0.464 |
| GUAGAAAUUCAUGUAUAAAUGGAACCAUAUAGUACAUACAUAUCAUACUCUUAGGUCUGGCAAAUAUUUGAGGUUCAUCCAUAUUUUAUA | -1.12 |
| CCUGUGCUACACAUCGUAUGUACCGAAUCGGGGUUUUUUUGGGGAGGGGAAAAAAAGGGGAAAGUAUUAUGUUACGCCGUUCGGAUCUGC | 0.0426 |
| UAACUUUAGAGGAGGAUCUGAUGGAUAUGGCAGUGGACGUGGAUUUGGGGAUGGCUAUAAUGGGUAUGCAGGAGGACCUGGAGGUGGCAA | 0.237 |
| CUCAAGUCCUGUGCUACACAUCGUAUGUACCGAAUCGGGGAGGAGGGGAGGGGAAAGUAUUAUGUUACGCCGUUCGGAUCUGCACUUCCA | 1.05 |

Study 3
Target: RING finger protein unkempt homolog, zinc fingers 1-6, GST-SBP tag (UNK, Homo sapiens, UniProt Q9C0B0, residues 30-357)
Chain of UniProt Q9C0B0 (30-357, looked up): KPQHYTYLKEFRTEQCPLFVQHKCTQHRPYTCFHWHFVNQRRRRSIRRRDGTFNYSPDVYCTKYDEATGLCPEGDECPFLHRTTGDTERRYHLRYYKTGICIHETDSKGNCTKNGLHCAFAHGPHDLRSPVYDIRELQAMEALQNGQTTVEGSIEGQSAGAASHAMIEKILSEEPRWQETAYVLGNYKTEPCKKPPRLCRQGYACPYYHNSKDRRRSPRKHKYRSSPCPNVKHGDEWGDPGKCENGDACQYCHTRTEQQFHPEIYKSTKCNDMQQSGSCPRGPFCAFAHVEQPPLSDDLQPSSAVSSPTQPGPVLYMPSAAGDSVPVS
Technique: RNA Bind-n-Seq
Form: RNA
Sample: in vitro
Concentration: not given
Notes: RNA with constant flanks, ends assumed
Baseline: input RNA pool
Direction: higher = stronger binding
Constant ends, left off below: GGGAGUUCUACAGUCCGACGAUC … CAACAGAGGAUUGAGCAUCA
| Oligonucleotide | bound/input enrichment |
| --- | --- |
| UGCAUUCGCAAAGCAAAGAUUUCCGCUGUUGCUUUCCGGAAAGCCUUUUGCCACCACAAGCCCGCCGAACUUGAUGCCACGGGUGUGAAUGCUGACAUCACUAUCACAGACAUCAUAAGU | 0.162 ratio |
| UGUCUUGAUGACACUACAGUAAAGUUUGAAAUAUGGGAUACAGCUGGUCAAGAACGAUACCACCGCCCCGCACCAAUGUACUACAGAGGAGCACAAGCAGCCAUAGUUGUAUAUGAUAUC | 0.544 ratio |
| GGAAAUUCAGGUAACUUGAAAAGCUCAGACAGAAAUCCUCCACUCAGUCCUCAGUCCUCUACCGACCGUGAGUUAAGUGCUUCAGAAUUAGAUGAAGAUUCAAUUGGAUCCAAUUAUAAG | 0.862 ratio |
| UAUGUCGAGUUUCUCUAGGGCGCCCCAGCAAUGGGCCACUUUUGCUAGAAUAUGGUAUCUCUCCGAUGGGAAAAUGCAGCCACCUGGCAAACUUGCUGCUAUGGCAUCUAUAAGACUUCA | 0.637 ratio |
| CUACCCUUGGCACAGGCCUCCAGUGAGCCUGUUCUGUUUCAGAAGAAAGGGGAAGCAGUGCCGCAUUUUUUGUUUGGUCUCUUAAAAAUGUGGUUAAAUCCACUAUUUUUUGCUCCUGUA | 0.111 ratio |
| UCGUGUCAGGGCAGGCUUCCUGUCUCAGCCUUCUGAGUAUUGGGAUUACAGUUGUCUGCCCCGCUGAUGUCCUGUCUUCUUUCAGCAGAGGCAUGUGCACCCAACAUGCACAUGAUUAAG | 0.0971 ratio |

Study 4
Target: CCNB1, cyclin fold, Cln2 fusion (human)
Technique: yeast growth competition, sequencing
Sample: yeast
Notes: strong parent motif
Baseline: not given
Direction: higher = stronger binding
Starting sequence: BRCA2 docking peptide (human); PSIKRNLLNEFDR
| Substitution | normalised enrichment score |
| --- | --- |
| PSIKRELLNEFDR [N6E] | 0.576 |
| PSIKRNLLNNFDR [E10N] | 0.122 |
| PSIRRNLLNEFDR [K4R] | 3.1 |
| ASIKRNLLNEFDR [P1A] | 2.14 |
| PSIKRNLLNEGDR [F11G] | 1.28 |
| PSIKRPLLNEFDR [N6P] | 0.744 |
| PSIKRNLWNEFDR [L8W] | 0.467 |
| PSIKRNLLNEFIR [D12I] | -0.228 |
| GSIKRNLLNEFDR [P1G] | 2.08 |
| PEIKRNLLNEFDR [S2E] | 1.13 |
| PSINRNLLNEFDR [K4N] | 2.45 |
| PSIVRNLLNEFDR [K4V] | 4.02 |
| PSIKRNLMNEFDR [L8M] | 3.13 |
| PSIKRNNLNEFDR [L7N] | -0.449 |

Study 5
Target: ABI1, truncated, D143A, DHFR fusion (Arabidopsis thaliana)
Technique: DHFR PCA, deep sequencing
Sample: yeast
Notes: methotrexate growth selection, single substitutions
Together with: (+)-ABA 58 µM
Baseline: wild-type fitted maximum
Direction: higher = stronger binding
Starting sequence: PYL1, truncated, DHFR fusion (Arabidopsis thaliana); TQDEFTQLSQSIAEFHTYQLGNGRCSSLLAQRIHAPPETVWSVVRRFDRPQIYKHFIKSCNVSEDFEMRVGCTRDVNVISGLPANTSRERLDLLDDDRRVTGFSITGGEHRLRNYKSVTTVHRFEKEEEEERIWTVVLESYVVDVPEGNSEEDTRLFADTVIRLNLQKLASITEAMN; partner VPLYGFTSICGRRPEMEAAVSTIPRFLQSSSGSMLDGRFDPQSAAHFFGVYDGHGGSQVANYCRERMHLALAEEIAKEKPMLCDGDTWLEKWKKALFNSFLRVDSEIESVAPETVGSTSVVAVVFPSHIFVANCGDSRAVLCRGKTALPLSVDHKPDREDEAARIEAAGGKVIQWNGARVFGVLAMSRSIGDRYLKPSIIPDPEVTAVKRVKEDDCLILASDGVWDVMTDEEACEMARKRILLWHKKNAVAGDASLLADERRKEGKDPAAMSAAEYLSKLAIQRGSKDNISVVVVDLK
| Substitution | relative binding score |
| --- | --- |
| E127W | 80.3% |
| E147L | 77.9% |
| I172W | 50.3% |
| L164D | -4.22% |
| I79H | 87.5% |
| V43F | 71.5% |
| Q7V | 93.8% |
| D3A | 90.2% |
| E64C | 78.9% |
| E64H | 89.9% |
| R69Q | 91.1% |

Study 6
Target: UBE2E2 UBC core domain (UniProt Q96LR5)
Chain of UniProt Q96LR5 (whole entry, looked up): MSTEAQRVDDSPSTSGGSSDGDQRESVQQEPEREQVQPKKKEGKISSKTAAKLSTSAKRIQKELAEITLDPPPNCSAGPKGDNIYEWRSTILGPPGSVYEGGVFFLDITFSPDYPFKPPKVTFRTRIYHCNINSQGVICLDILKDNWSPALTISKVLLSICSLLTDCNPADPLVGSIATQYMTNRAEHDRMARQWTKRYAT
Technique: yeast two-hybrid
Sample: yeast
Notes: mostly zero background
Baseline: not given
Direction: higher = stronger interaction
B1: HLTF RING domain (UniProt Q14527); chain LILSSGSDEECAICLDSLTVPVITHCAHVFCKPCICQVIQNEQPHAKCPLCRNDIHEDNLLE
B2: RNF103 RING domain (UniProt O00237); chain WPADMLHCTECVVCLENFENGCLLMGLPCGHVFHQNCIVMWLAGGRHCCPVCRWPSYKKKQPY
B3: RNF182 RING domain (UniProt Q8N6D2); chain AESQASDELECKICYNRYNLKQRKPKVLECCHRVCAKCLYKIIDFGDSPQGVIVCPFCRFETCLPDDEV
B4: BFAR RING domain (UniProt Q9NZS9); chain GPQISVSEFSCHCCYDILVNPTTLNCGHSFCRHCLALWWASSKKTECPECREKWEGFPKVS
B5: CNOT4 RING domain (UniProt O95628); chain MSRSPDAKEDPVECPLCMEPLEIDDINFFPCTCGYQICRFCWHRIRTDENGLCPACRKPYPED
| Molecule | lacZ reporter activity |
| --- | --- |
| B1 (HLTF RING domain) | 0 |
| B2 (RNF103 RING domain) | 3230 |
| EIKEYKARLTCPCCNTRKKDAVLTKCFHVFCFECVRGRYEARQRKCPKCNAAFGAHDFHR (RNF40 RING domain (UniProt O75150)) | 0 |
| B3 (RNF182 RING domain) | 0 |
| B4 (BFAR RING domain) | 0 |
| B5 (CNOT4 RING domain) | 0 |

A few entries again (study 2):
| Oligonucleotide | log2 enrichment |
| --- | --- |
| UUCCUUCCACGACCCCUGAAGAGCAGCGGUGGGUCUGAGCAUCCUAUCUCCAGGAAGCAGGCCAGCAGGCAAGCCAGCUGCCACCUCGUC | -0.0572 |
| UAACUUUAGAGGAGGAUUUGAUGGAUAUGGCAGUGGACGUGGAUUUGGGGAUGGCUAUAAUGGGUAUGGAGGAGGACCUGGAGGUGGCAA | 0.254 |
| CACGGACAACACGCACCCACACAGACACAGAGGGAAGGGGUUGGGAUGGGGACAGGGUGCACAGCAGGGCGGGGUAGGACCCCAGCCCCU | 1.6 |
| GCAGGAAGUAAAAACAAAUGGAAAUGCUGCGGAUAGUGGCAGGGGUGGGGGUUGCUAAGGAAAGGGUGGGAUGGGAGUGGGUAAAGAGUU | 0.28 |
| UCCUGUGCUACACAUCGUAUGUACCGAAUCGGGAAAAAGGGUUUUUUUGGGAAAAAGGGAAAGUAUUAUGUUACGCCGUUCGGAUCUGCA | -0.464 |
| GUAGAAAUUCAUGUAUAAAUGGAACCAUAUAGUACAUACAUAUCAUACUCUUAGGUCUGGCAAAUAUUUGAGGUUCAUCCAUAUUUUAUA | -1.12 |
| CCUGUGCUACACAUCGUAUGUACCGAAUCGGGGUUUUUUUGGGGAGGGGAAAAAAAGGGGAAAGUAUUAUGUUACGCCGUUCGGAUCUGC | 0.0426 |
